Results from different studies.
Each numbered part is a random draw from the data of one study; scales do not carry over between parts. Several values in a cell are separate wells, animals, samples, runs or records.

Block 1
Target: Histone acetyltransferase KAT6A, winged helix 1, GST fusion (KAT6A, Homo sapiens, UniProt Q92794, residues 1-85)
Technique: protein binding microarray
Form: double-stranded DNA, one strand shown
Sample: in vitro
Tested at: not given
Notes: 8-mer, flanks averaged, mean of 2 arrays, mostly near background
Reference: not given
Direction: higher = stronger binding
Construct (chain): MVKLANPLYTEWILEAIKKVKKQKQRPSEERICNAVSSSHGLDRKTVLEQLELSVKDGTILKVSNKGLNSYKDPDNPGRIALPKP
With `ATGCCACC` the E-score was -0.0435.
`GCAAGGAA` has an E-score of -0.103.
For `ATTTTGAC`, the E-score was -0.234.
With `ATTGCAGG` the E-score was -0.093.
For `AACTCGTA`, the E-score was -0.114.
`CCTGAGAG` has an E-score of -0.131.
With `CACGAGGA` the E-score was -0.187.
`AGCCCCTC` gave an E-score of -0.14.

Block 2
Target: Sal-like protein 4, full length isoform B (SALL4, Homo sapiens, UniProt Q9UJQ4-2, residues 1-616)
Technique: universal PBM
Form: double-stranded DNA, one strand shown
Sample: in vitro
Tested at: not given
Notes: 8-mer, flanks averaged, mean of replicates
Direction: higher = stronger binding
With `AAGCCAAG` the E-score was -0.224.
`CTAGACGC` gave an E-score of -0.123.
`ACATCGGT` has an E-score of -0.172.
`CATGGGAA` gave an E-score of -0.0187.
`ATCGCGTC` gave an E-score of -0.118.

Block 3
Target: Interferon regulatory factor 7, full length, phosphomimetic (IRF7, Homo sapiens, UniProt Q92985, residues 1-503, S101K/S471D/S472D/S475D/S476D/S477D/S483D/S484D/S487D)
Technique: protein-binding microarray
Form: double-stranded DNA, one strand shown
Sample: in vitro
Tested at: 250 nM
Notes: 60-bp whole probe
Together with: salmon DNA 0.4 mg/ml
Reference: random background probes
Direction: higher = stronger binding
Shared flanks, not repeated: GCCTAGCAC … GTCTTGATTCGCTTGACGCTGCTG
Residues (chain): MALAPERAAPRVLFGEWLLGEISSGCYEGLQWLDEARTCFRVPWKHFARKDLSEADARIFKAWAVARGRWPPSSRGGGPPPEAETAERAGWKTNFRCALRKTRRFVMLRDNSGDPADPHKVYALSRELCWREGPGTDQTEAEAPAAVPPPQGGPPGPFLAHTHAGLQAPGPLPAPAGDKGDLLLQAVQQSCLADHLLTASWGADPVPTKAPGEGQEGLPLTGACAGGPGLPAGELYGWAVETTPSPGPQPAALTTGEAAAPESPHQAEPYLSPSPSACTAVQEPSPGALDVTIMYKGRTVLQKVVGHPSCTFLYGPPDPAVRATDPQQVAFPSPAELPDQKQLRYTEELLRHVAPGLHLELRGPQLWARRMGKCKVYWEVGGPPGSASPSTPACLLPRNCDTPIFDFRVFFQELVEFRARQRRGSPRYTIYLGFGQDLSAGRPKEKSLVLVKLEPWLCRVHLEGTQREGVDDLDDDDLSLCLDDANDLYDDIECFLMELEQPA
The log fluorescence of `TCGTGGATTGCGACCCCTAGGTGCTAG` is reported as -0.507 z-score.
`TTAGGACTGGGGTATTGGTTAGTGCTA` has a log fluorescence of -0.368 z-score.
`GACGATCTCAGTTTCGCGACGTGCTAG` has a log fluorescence of 1.17 z-score.
`TTAGGTAGCGGACTGGGTTAGTGCTAG` gave a log fluorescence of -0.604 z-score.
For `TCATCTCTAATTTTGAGACTGTGCTAG`, the log fluorescence was 0.457 z-score.
`GACGATCTCAGTTTCGAGTCGTGCTAG` has a log fluorescence of 7.62 z-score.

Further values, each from its own experiment
With `PhoQ, residues 284 288 289 292 302 303 GASLAW` the fold induction was 29.2 and 12.3 (PhoP, residues 12 14 15 18 19 LWHSL (Escherichia coli, UniProt P23836); Sort-seq, item: YFP reporter; E. coli; PhoQ-PhoP variant library, together with: 10 µM Mg2+; reference: high Mg2+ state, higher = stronger signaling).

A few entries again (block 1):
With `ATTGCAGG` the E-score was -0.093.
`GCAAGGAA` has an E-score of -0.103.
`CCTGAGAG` has an E-score of -0.131.
